Results pooled from the literature.
Each numbered part is a random draw from the data of one study; scales do not carry over between parts.

Block 1
Target: Histone acetyltransferase KAT6A, winged helix 2, GST fusion (KAT6A, Homo sapiens, UniProt Q92794, residues 85-181)
Method: protein binding microarray
Form: double-stranded DNA, one strand shown
Sample: in vitro
Concentration: not given
Notes: 8-mer, flanks averaged, mean of 2 arrays, mostly near background
Reference: not given
Direction: higher = stronger binding
Target sequence (chain): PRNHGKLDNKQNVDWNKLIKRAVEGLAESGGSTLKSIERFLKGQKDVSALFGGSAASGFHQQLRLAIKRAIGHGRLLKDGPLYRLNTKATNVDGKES
Strand	E-score
TATACTAA	-0.0256
AAGCCGAC	0.134
AGCTAAGG	-0.0783
GGACATCC	0.0944
GCTCGGGA	0.0586
CCACTGGG	0.01
AGTGTTAT	-0.104
ATATAACG	0.125
AAGATTGT	-0.0908
ATAAATGA	-0.00164
TAGCACCA	0.0281
TTCCTAAA	0.0447
CCTAAAAC	0.0273
AGCGATGC	-0.0408
GAGCGACC	0.0105
AGGCCCGA	0.0224
CTTGGTAA	0.0879
CCGTTTGC	0.00296
ATCTTGCA	0.172
ACCTGTGC	-0.0644
ACTGTGTA	-0.01
AACCTGCC	0.0945
CCAAATAA	-0.0114
TGCTAACA	0.206
CCTGAGAG	0.0134

Block 2
Target: Interferon regulatory factor 7, full length, phosphomimetic (IRF7, Homo sapiens, UniProt Q92985, residues 1-503, S101K/S471D/S472D/S475D/S476D/S477D/S483D/S484D/S487D)
Sequence of UniProt Q92985 (whole entry, unmodified, looked up): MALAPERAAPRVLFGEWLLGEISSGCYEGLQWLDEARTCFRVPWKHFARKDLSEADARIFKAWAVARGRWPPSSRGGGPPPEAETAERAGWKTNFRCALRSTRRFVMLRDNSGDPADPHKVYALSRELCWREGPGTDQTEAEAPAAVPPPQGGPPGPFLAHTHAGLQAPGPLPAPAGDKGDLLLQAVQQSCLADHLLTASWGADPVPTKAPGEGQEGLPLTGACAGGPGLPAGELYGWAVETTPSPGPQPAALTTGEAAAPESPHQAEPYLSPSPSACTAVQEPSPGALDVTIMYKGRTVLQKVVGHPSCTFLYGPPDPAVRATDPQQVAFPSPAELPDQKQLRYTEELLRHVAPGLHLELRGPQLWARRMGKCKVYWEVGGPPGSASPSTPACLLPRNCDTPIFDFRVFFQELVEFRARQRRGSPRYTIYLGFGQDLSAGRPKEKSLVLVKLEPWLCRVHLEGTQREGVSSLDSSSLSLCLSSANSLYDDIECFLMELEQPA
Method: protein-binding microarray
Form: double-stranded DNA, one strand shown
Sample: in vitro
Concentration: 250 nM
Notes: 60-bp whole probe
Added: salmon DNA 0.4 mg/ml
Reference: random background probes
Direction: higher = stronger binding
Constant ends, left off below: GCCTAGCAC … GTCTTGATTCGCTTGACGCTGCTG
Strand	log fluorescence [z-score]
CTAGGTCTCGGTTTCGGTTAGTGCTAG	11.4
GACAATATCGGGTTTCGAGACGTGCTA	3.46
TCAAATCTTGAGTTAGAACTGTGCTAG	0.0172
TTAGGTTTCCTACTGCCTTAGTGCTAG	1.06
CTAAAAATCCCATTAAATTTGTGCTAG	0.483
TTAGTACTGGACACTGGGTTAGTGCTA	-0.141
CCTGGTTTTACTTTCTATCTGTGCTAG	2.16
ACCATTTTGTTTTTCATTATGTGCTAG	1.58
TTAGGTCTCCGTTTCGGTTAGTGCTAG	4.41
TTTGCTTTAGTCATTCACTGAGTGCTA	-0.157
GACGATTCCAGTTGCGAGACGTGCTAG	0.274
GAGGGTTTCGACTTTCGGGACGTGCTA	9.13
TTAGATTTCGGTATCGATTAGTGCTAG	2.91
TTAGGTATCCTTTTGCTTTAGTGCTAG	1.19
TTAGAACTGAGTCTGGATTAGTGCTAG	-0.368
CACGATATCAGTATCGAGACGTGCTAG	0.446
GTCGGTTTCCTTATCCTGACGTGCTAG	4.38
TTGTAAATCTTTTTCCCTATGTGCTAG	0.555
TCATCTTTCACTGGTCCTACTGTGCTA	0.706

Block 3
Target: RNA binding protein fox-1 homolog 2, RRM domain, GST-SBP tag (RBFOX2, Homo sapiens, UniProt O43251-10, residues 100-194)
Method: RNA Bind-n-Seq
Form: RNA
Sample: in vitro
Concentration: 365 nM
Notes: natural RNA segment, single round, ends assumed
Reference: no-protein control
Direction: higher = stronger binding
Constant ends, left off below: GGGAGUUCUACAGUCCGACGAUC … UGGAAUUCUCGGGUGCCAA
Construct (chain): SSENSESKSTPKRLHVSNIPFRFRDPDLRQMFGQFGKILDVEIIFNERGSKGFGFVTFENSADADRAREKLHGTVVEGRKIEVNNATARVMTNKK
Strand	RBNS enrichment (R)
UAAAGAAGAGACUACAUUAUUUAUUUUUUAAAUUAAGCCUUCAAUAAUAAAGUGAGUAUACAAAUUUGAUCUGUCUGUACUAUUAUCAGAGGGUGUUGAGUCUCACAUUG	0.508
UUUCCCAAAGUUUCUGACUUUGUGGUUUACCCCCUUCACCUUCCAGGGACGCAGUUGUUACGAGGUUAGACGUGGCAGCUCUGUGCAGUGUUUGAGCCUACAGUGGGAUA	0.381
GCAGGCAGACGAGGCCUUUGCUUUACAGCACUGUAUGUGUUGCACGAUGGAUCCGUGACAGCACUUUCCUGUUGCACUGAAACUCUUGGCCAUGUAGAGGAAAAGAUAUG	1.24
UUGUCUAAACUAUUCAGACACUUGGAGAAUAUUCUCCUUGAAUUAAAAAAGAUGAUUAAGAAGGAUGCUCCUACAACUGUAUCCUGACAGUUAAGUCACAGCUUAAUGUG	0.251
AAGAAAAUAAAACUGGAAAUUGAAUAUGGGUGGCAUGAUUGUACCCUUUUAGUUCUCUUAUUUUUCUACUCCUCUGUCCCUCUAUAACUAUGCCAUACUAUUAUAUGCUG	10.7
CAGAAGGGGUUUGGUCUGGGACUUCCUUGCUCUCCCUCUUCUCAAGUGCCUUAAUAGUAGGGUAAGUUGUUAAGAGUGGGGGAGAGCAGGCUGGCAGCUCUCCAGUCAGG	0.397
UUUGAUGACCCUCAUCCAAGUCUAUGACACUUUCCUAUGGUUUUCUGUAUUCUAUGUCUGGAUGGAGCUGUUAAAAGAUGAACAAAUUGGUGGAUAUUUGGGGAAAGCAA	0.846
UCUCAGUGUUUUCUUCAAAACUUCUCCAAGAGAGUCCAGGCUCUCACAUCGUCUUCCUGUGCGACCUAUUAGAGAGAUGAAAAGCCUUUGAAAACAGCUAGCUCUGCAUU	1.2

Block 4
Target: Fragile X messenger ribonucleoprotein 1, C-terminal low-complexity region (Fmr1, Mus musculus, UniProt P35922)
Method: RNA Bind-n-Seq
Form: RNA
Sample: in vitro
Concentration: 200 nM
Notes: whole 134-nt RNA, ends assumed
Added: 150 mM KCl
Reference: input library
Direction: higher = stronger binding
Constant ends, left off below: GGGAGUUCUACAGUCCGACGAUC … UGGAAUUCUCGGGUGUCAAGG
Strand	log2 enrichment
CUCAAGUCCUGUGCUACACAUCGUAUGUACCGAAUCGGGGUGGGUGGGGUGGGGAAAGUAUUAUGUUACGCCGUUCGGAUCUGCACUUCC	0.235
CCUGUGCUACACAUCGUAUGUACCGAAUCGGGGUUUUUGGGGUUUGGGGAAAAAAAGGGGAAAGUAUUAUGUUACGCCGUUCGGAUCUGC	0.166
GUCCUGUGCUACACAUCGUAUGUACCGAAUCGGGUUUUUGGGUUUGGGUUUUUUUGGGAAAGUAUUAUGUUACGCCGUUCGGAUCUGCAC	-0.0492
UCCUGUGCUACACAUCGUAUGUACCGAAUCGGGGAAAAAAAGGGGUUUGGGGAAAGGGGAAAGUAUUAUGUUACGCCGUUCGGAUCUGCA	0.678
GCAGGAAGUAAAAACAAAUGGAAAUGCUUCGGCUAGUGGCAGGGGUGGGGGUUGCUAAGGAAAGGGUGGGAUGGGAGUGGGUAAAGAGUU	0.512
AAGUCCUGUGCUACACAUCGUAUGUACCGAAUCGGGGCCCGGGGCCCGGGGCCCGGAAAGUAUUAUGUUACGCCGUUCGGAUCUGCACUU	-1.08
ACCAUGCAGGUGGGCUUCUUUGGGAAGUGGGGCAAGGGGGGGAUAGGGAGGGGGGUAACACUUUGGGAACAGGUGGUCCCAGGUCGUUUC	1.05
ACCAUGCAGGUGGGCAUCUUUGGGAAGUGGGGCAAGGGGGGGAUAGGGAGGGAAAUAACACUUUGGGAACAGGUGGUCCCAGGUCGUUUC	0.622
UCAAGUCCUGUGCUACACAUCGUAUGUACCGAAUCGGGGUUGGGUUGGGUUGGGAAAGUAUUAUGUUACGCCGUUCGGAUCUGCACUUCC	1.34

Excerpt of the above (block 1):
Strand	E-score
GAGCGACC	0.0105
AGGCCCGA	0.0224
CTTGGTAA	0.0879
CCGTTTGC	0.00296
ATCTTGCA	0.172
ACCTGTGC	-0.0644
ACTGTGTA	-0.01
AACCTGCC	0.0945
CCAAATAA	-0.0114
